Measurements of several laboratories.
Parts stem from different laboratories: compare values within a part only.
Sequence of UniProt Q9HBH9 (whole entry, looked up): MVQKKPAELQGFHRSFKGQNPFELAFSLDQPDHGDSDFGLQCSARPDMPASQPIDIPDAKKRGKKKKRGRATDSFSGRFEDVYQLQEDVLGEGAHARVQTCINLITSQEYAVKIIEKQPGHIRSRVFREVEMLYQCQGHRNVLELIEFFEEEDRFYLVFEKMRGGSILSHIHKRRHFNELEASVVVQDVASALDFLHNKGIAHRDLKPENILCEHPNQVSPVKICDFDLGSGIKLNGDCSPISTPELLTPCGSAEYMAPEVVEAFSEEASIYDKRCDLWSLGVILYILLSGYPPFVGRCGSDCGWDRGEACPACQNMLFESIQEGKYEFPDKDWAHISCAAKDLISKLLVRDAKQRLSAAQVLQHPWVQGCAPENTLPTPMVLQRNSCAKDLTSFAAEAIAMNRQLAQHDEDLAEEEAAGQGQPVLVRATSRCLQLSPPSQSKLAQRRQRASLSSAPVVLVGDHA
Sequence of UniProt Q9NSY1 (whole entry, looked up): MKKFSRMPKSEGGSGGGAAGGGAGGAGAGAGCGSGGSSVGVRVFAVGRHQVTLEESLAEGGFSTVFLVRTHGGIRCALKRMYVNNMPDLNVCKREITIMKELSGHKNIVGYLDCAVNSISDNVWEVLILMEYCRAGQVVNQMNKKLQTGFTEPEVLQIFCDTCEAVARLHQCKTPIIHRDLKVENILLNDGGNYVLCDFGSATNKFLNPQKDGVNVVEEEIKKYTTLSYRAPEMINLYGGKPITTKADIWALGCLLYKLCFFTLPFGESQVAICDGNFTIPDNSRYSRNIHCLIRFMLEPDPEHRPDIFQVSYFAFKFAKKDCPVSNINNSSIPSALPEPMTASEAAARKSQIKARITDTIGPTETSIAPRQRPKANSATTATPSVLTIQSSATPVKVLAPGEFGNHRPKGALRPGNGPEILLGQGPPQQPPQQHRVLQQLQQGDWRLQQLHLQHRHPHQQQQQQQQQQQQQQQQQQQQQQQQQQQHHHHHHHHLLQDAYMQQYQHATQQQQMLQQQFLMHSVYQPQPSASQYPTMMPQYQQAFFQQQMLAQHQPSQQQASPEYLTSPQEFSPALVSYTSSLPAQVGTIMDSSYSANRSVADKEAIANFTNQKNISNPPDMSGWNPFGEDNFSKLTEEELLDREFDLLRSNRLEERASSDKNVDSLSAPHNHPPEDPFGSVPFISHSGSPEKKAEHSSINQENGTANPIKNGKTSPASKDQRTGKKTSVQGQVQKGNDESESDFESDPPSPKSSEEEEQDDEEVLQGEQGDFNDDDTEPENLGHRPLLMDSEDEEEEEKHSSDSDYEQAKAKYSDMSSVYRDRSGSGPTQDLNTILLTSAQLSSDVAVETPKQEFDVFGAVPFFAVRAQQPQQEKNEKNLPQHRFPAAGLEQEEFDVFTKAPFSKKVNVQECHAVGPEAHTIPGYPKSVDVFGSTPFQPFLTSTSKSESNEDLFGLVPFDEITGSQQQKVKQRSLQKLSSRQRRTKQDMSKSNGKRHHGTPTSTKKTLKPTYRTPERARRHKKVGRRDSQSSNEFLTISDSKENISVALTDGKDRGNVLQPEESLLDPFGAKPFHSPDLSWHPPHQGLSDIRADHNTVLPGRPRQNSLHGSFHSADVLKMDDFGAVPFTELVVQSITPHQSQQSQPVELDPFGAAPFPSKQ
Sequence of UniProt Q9BWU1 (whole entry, looked up): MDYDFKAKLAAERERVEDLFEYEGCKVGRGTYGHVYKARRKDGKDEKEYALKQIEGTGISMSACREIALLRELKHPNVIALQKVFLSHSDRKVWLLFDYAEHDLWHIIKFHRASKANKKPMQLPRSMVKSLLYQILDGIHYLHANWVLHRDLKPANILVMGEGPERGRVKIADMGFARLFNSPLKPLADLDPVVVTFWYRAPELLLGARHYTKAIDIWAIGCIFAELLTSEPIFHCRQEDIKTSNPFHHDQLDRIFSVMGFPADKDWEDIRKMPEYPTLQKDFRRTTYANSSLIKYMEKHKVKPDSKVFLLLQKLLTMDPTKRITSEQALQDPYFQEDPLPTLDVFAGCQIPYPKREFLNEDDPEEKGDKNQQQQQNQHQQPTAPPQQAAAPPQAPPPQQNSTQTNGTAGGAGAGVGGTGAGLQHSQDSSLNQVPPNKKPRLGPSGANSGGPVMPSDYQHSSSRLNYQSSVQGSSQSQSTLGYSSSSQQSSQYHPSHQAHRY
Sequence of UniProt P53671 (whole entry, looked up): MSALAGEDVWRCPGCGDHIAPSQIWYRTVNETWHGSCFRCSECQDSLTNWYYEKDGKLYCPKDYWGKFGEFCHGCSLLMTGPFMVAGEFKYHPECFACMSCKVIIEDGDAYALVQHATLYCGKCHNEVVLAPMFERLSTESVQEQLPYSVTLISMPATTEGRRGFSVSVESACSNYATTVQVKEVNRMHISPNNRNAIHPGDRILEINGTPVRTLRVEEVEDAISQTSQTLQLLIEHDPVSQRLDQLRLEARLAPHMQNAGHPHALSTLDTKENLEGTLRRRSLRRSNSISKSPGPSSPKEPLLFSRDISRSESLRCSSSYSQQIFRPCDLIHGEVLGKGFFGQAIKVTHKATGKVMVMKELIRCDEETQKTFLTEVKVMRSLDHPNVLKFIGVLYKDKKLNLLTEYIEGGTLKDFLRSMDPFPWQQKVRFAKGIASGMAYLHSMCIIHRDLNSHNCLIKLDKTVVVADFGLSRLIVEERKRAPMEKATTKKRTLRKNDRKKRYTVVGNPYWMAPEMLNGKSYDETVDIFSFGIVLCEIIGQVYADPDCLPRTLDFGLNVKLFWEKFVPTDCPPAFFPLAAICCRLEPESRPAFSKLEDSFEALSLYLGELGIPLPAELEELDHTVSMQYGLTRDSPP

Sample 1
Target: Ras GTPase-activating protein-binding protein 1, full length (G3BP1, Homo sapiens, UniProt Q13283)
Sequence of UniProt Q13283 (whole entry, looked up): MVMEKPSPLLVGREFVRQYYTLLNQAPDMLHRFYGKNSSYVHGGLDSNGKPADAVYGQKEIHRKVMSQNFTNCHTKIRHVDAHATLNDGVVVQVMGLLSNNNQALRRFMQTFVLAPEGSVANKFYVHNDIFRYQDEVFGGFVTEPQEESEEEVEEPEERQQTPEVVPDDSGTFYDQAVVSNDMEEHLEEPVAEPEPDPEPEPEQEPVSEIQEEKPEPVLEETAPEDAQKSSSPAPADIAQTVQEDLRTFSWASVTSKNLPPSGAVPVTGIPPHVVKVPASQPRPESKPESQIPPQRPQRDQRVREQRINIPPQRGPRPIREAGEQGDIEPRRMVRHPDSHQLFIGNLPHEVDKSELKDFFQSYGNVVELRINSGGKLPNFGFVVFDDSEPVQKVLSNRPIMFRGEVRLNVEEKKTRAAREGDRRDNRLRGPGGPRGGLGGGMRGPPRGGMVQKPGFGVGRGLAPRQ
Technique: RNA Bind-n-Seq
Form: RNA
Sample: in vitro
Tested at: 200 nM
Notes: whole 134-nt RNA, ends assumed
Together with: 150 mM LiCl
Relative to: input library
Direction: higher = stronger binding
Library: 7-deaza-guanosine replaces G
`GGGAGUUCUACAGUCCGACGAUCUGGCCCUGGUGGCAUGCGGGGAGGAAGAGGUGGCCUCAUGGAUCGUGCUGGUCCCGGUGGAAUGUUCAGAGGUGGCCGUGGUGGAGACAGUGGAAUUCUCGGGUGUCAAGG` has a log2 enrichment of 0.143.
The log2 enrichment of `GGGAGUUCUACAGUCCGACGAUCCUCAAGUCCUGUGCUACACAUCGUAUGUACCGAAUCGGUGGAAAAAAAGGAGGAAAGUAUUAUGUUACGCCGUUCGGAUCUGCACUUCCAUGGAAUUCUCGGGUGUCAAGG` is reported as 0.09.
`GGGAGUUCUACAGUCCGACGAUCUGCAGCAGCGCCAGGAAUCGAGGAUGGUAAAAUGACCCAGGGGAAGAAGAAGAAACGGGCCGCGAACCGCAGUAUCAUGCUGGCCAAGAAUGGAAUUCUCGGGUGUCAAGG` has a log2 enrichment of 0.204.
The log2 enrichment of `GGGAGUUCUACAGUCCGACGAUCCUCAAGUCCUGUGCUACACAUCGUAUGUACCGAAUCGGGUGGGAGGGAAAGGGAAAGUAUUAUGUUACGCCGUUCGGAUCUGCACUUCCAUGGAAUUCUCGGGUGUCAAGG` is reported as 0.165.
With `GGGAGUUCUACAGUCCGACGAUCAGUCCUGUGCUACACAUCGUAUGUACCGAAUCGGGAAAAAGGGUGGGUUUUUUUGGGAAAGUAUUAUGUUACGCCGUUCGGAUCUGCACUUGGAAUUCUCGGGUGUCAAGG` the log2 enrichment was -1.35.
`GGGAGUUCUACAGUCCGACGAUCCUGUGCUACACAUCGUAUGUACCGAAUCGGGCCCCCCCGGGCCCCCCCGGGGCCCCCCCGGGAAAGUAUUAUGUUACGCCGUUCGGAUCUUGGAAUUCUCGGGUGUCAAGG` gave a log2 enrichment of -0.548.
`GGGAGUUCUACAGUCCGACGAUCAAGUCCUGUGCUACACAUCGUAUGUACCGAAUCGGGAAAGGGUUUUUGGGAAAGGGAAAGUAUUAUGUUACGCCGUUCGGAUCUGCACUUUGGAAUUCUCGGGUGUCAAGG` gave a log2 enrichment of -0.617.
For `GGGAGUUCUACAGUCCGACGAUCCACAGACAACACGCACCCACACAGACACAGAGGGAAGGGGUUGGGAUGGGGACAGGGUGCACAGCAGGGCGGGGUAGGAACCCAGCCCCUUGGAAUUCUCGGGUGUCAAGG`, the log2 enrichment was 0.714.

Sample 2
Compound: O=C(Nc1cccnn1)N1CC(C/C=C/c2cncc(Oc3ccc(C(F)(F)F)cn3)n2)C1
Tested at: 1 µM
The remaining binding was 100% (WEE1 (Homo sapiens, UniProt P30291); cell-free assay, competition with immobilised ligand).
BMP2K (Homo sapiens, UniProt Q9NSY1); cell-free assay, competition with immobilised ligand — remaining binding: 100%.
It gave 84% for remaining binding (CDK19 (Homo sapiens, UniProt Q9BWU1); competition binding).
The remaining binding was 77% (MKNK2 (Homo sapiens, UniProt Q9HBH9); cell-free assay, competition with immobilised ligand).
It gave 95% for remaining binding (LIM domain kinase 2 (LIMK2, Homo sapiens, UniProt P53671); cell-free assay, competition with immobilised ligand).

Sample 3
Target: Platelet-derived growth factor receptor alpha (PDGFRA, Homo sapiens, UniProt P16234)
Sequence of UniProt P16234 (whole entry, looked up): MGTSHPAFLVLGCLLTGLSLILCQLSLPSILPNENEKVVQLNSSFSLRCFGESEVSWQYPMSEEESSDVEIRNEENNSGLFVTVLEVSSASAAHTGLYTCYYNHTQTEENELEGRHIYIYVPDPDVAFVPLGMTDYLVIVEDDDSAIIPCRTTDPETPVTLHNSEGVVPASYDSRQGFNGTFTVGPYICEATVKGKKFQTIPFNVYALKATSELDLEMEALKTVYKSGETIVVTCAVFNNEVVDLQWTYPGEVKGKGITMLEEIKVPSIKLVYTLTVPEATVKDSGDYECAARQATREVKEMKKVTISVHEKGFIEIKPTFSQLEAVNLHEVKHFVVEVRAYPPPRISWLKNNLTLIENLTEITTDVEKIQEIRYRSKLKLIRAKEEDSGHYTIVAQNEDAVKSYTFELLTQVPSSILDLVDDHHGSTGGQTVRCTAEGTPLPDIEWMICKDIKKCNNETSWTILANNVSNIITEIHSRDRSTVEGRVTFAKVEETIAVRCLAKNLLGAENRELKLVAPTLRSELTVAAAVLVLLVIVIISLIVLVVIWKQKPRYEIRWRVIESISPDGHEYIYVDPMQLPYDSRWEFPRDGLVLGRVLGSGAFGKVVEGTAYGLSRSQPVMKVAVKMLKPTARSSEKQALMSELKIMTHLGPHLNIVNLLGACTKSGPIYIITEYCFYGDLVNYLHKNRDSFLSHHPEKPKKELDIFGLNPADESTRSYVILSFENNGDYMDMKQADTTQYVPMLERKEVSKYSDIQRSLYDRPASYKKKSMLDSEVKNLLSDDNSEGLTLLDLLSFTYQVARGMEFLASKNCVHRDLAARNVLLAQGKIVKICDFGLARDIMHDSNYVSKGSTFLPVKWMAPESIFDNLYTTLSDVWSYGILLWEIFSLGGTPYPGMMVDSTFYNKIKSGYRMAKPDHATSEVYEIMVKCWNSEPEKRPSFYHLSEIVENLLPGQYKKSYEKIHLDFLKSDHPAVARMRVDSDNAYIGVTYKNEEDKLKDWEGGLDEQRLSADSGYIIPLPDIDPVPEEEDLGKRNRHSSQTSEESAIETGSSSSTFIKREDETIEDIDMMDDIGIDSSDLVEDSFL
Observed: enzyme activity
Mode: inhibitor
Tested at: 0.5 µM
Relative to: control
For `COc1ccc(OC)c2c(=S)c3ccccc3[nH]c12`, the remaining activity was 85.6%.
The remaining activity of `Cn1sc(=O)n(Cc2ccccc2)c1=O` is reported as 84.1%.
With `O=C1NC(=O)C(c2cn(CCCO)c3ncccc23)=C1c1cnccn1` the remaining activity was 113%.
`O=C(O)c1ccc2c3c1cccc3c(=O)n1c3ccccc3nc21` gave a remaining activity of 94.4%.
With `Cc1cccc(-c2[nH]c(C(C)(C)C)nc2-c2ccc3c(c2)OCO3)n1` the remaining activity was 94.1%.
For `CC(C)[C@H](CO)Nc1nc(Nc2cc(N)cc(Cl)c2)c2ncn(C(C)C)c2n1`, the remaining activity was 89.4%.

Sample 4
Target: Centromere-binding protein 1, full length, N-terminal tag (CBF1, Saccharomyces cerevisiae, UniProt P17106, residues 1-351)
Sequence of UniProt P17106 (whole entry, looked up): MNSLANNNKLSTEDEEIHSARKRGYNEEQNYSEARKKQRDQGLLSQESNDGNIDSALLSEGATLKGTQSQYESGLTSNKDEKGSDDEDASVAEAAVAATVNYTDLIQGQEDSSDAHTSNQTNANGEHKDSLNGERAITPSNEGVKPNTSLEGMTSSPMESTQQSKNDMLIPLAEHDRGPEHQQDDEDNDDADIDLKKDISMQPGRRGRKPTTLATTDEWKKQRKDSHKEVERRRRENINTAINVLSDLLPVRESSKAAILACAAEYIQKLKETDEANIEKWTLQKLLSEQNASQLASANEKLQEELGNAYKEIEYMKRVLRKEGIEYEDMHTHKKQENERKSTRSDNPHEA
Technique: protein-binding microarray
Form: double-stranded DNA, one strand shown
Sample: in vitro
Tested at: 0.8 µM
Notes: whole 60-bp probe, no competitor
Direction: higher = stronger binding
`GAACGACTCCCAATACACGTTTTCTATTTTTAATAGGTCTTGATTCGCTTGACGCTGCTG` has a fluorescence intensity of 572 a.u.
For `GAATGAAAATTACTGCACGTCATGTGGGAGGAGTAGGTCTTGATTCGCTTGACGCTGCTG`, the fluorescence intensity was 984 a.u.
For `GAAATCGAAAGAAGGGGCGTGGTCAGAAGGGTATAGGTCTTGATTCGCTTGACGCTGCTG`, the fluorescence intensity was 592 a.u.
For `CTAGTTTGTCATGATAGCATGACGGTAGCAGGCTTCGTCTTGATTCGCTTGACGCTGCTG`, the fluorescence intensity was 537 a.u.
For `CTACCTTTACACCTTCATCAGATTCGCCATCAATTCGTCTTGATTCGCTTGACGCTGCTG`, the fluorescence intensity was 546 a.u.
`CTATCTCGAGGTGCCCACATGCAATCTTTACTGTTCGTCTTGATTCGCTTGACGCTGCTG` gave a fluorescence intensity of 568 a.u.
`CTATCAAAGAAAAATCACGAATTGAATAAGCTTTTCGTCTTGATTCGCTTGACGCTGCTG` gave a fluorescence intensity of 525 a.u.
With `GAATACCTAGTAAATCACGATGAGAATTATATATAGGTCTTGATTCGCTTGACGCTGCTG` the fluorescence intensity was 577 a.u.

Some of these lines once more (sample 1):
The log2 enrichment of `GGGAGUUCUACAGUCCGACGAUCCUCAAGUCCUGUGCUACACAUCGUAUGUACCGAAUCGGUGGAAAAAAAGGAGGAAAGUAUUAUGUUACGCCGUUCGGAUCUGCACUUCCAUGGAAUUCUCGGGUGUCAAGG` is reported as 0.09.
`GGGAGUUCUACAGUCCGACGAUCUGCAGCAGCGCCAGGAAUCGAGGAUGGUAAAAUGACCCAGGGGAAGAAGAAGAAACGGGCCGCGAACCGCAGUAUCAUGCUGGCCAAGAAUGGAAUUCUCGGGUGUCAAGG` has a log2 enrichment of 0.204.
The log2 enrichment of `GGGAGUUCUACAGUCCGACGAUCCUCAAGUCCUGUGCUACACAUCGUAUGUACCGAAUCGGGUGGGAGGGAAAGGGAAAGUAUUAUGUUACGCCGUUCGGAUCUGCACUUCCAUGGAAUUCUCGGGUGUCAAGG` is reported as 0.165.
